Measured values from different studies.
“And” joins repeats or separate records; there may be more than shown.
Target: Inhibitor of nuclear factor kappa-B kinase subunit epsilon (IKBKE, Homo sapiens, UniProt Q14164)
Sequence (Q14164 1-716, as in one of the studies): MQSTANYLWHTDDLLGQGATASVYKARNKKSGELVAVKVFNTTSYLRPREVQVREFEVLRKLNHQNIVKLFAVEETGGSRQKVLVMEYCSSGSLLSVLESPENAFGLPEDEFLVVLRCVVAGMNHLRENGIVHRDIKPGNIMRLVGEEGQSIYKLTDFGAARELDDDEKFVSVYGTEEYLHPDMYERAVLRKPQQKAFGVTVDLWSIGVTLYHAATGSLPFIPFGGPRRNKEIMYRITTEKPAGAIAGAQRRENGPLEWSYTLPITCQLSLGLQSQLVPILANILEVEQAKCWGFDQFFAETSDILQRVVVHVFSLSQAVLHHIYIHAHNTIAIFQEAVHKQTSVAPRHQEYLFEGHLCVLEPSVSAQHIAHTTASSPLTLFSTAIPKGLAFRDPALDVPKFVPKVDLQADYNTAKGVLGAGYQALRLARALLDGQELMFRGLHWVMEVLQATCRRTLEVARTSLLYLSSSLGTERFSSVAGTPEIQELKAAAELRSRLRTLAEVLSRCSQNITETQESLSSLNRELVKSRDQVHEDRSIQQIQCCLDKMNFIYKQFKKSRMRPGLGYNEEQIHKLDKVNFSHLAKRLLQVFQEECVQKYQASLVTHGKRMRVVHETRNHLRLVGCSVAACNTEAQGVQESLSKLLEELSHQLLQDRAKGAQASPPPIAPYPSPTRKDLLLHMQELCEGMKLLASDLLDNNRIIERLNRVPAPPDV

SMILES | assay | test system | setting | how to read | endpoint | value
CN1CCN(Cc2ccc(-c3ccc(CO[C@H]4CCC[C@@H]4NC(=O)c4cc(-c5cnn(C)c5)cnc4N)cc3)cc2)CC1 | enzyme activity, inhibitor |  | 0.1 µM |  | inhibition | 11%
CC(C)=CC1OC(C)(C)C2C=C3C(=O)C(Cl)=CC(O)C3C3C(O)C4OC4C(=O)C132 (stereo not drawn) | cell-free assay, competition with immobilised ligand |  | 10 µM |  | remaining binding | 98%
N[C@H]1CC[C@H](Nc2nccc(-c3cccnc3Oc3ccc(NC(=O)NC4CC4)c4ccccc34)n2)CC1 | kinobead competition pulldown | HEK293/HCT116 lysate mixture | 10 µM, 1 h, 4 °C | lower = stronger competition | log2 LFQ intensity | 19.9 and 20.7 and 20.3 and 20.4
CNC1C[S+]2CC[S+]3CC[S+](C1)[Ru-4]321([N]=C=S)[n]2c3ccc(OC)cc3c3c4c(c5cc(F)c[n+]1c5c32)C(=O)NC4=O (stereo not drawn) | KinomeScan |  | 0.1 µM | relative to: untreated | remaining binding | 100%
C=CC(=O)N1CCc2ccc(-n3c(=O)ccc4cnc5ccc(-c6cnn(C)c6)cc5c43)cc21 | KINOMEscan |  | 1 µM | relative to: DMSO control | remaining binding | 100%
Cc1cccc(-c2ccc3nc(NC(=O)C4CCOCC4)nn3c2)c1 | enzyme activity, Dundee kinase panel |  | 10 µM |  | remaining activity | 108%
Nc1ncc(-c2cc(-c3cnn(CC(F)(F)F)c3)ncc2F)nc1C(=O)NC1CNCC(F)C1 (stereo not drawn) | enzyme activity |  | 1 µM | relative to: DMSO control | remaining activity | 94.5%
COc1cc(Nc2nc(C)cc(-c3cnn4nc(OC)ccc34)n2)cc(C(F)(F)F)c1 | KINOMEscan |  | 1 µM, IKK-epsilon | relative to: DMSO | remaining binding | 83%
Cc1cccc(O[C@H]2CCC[C@@H](C(C)CNCc3ccncc3)C2)c1 (relative stereo) | enzyme activity, inhibitor |  | 1 µM |  | inhibition | 18%
C=CC(=O)Nc1cccc(-c2cnc3[nH]cc(C(=O)NC(C)(C)C)c3n2)c1 | enzyme activity, inhibitor |  | 0.1 µM |  | inhibition | 12%
CNC(=O)C1CCN(c2cc(C)c(F)cc2NC(=O)c2ccc(-c3cc(O)ccc3C)c(C)c2)CC1 | binding, competition with immobilised ligand |  | 1 µM |  | remaining binding | 84%
Cc1ccc(-c2c(/C=C(\C#N)C(=O)NC(C)C)n(CCCO)c3ncnc(N)c23)cc1 | binding, competition with immobilised ligand |  | 1 µM |  | remaining binding | 100%
Cc1cccc(-c2ccc3nc(NC(=O)C4CCCCC4)nn3c2)c1 | enzyme activity, Dundee kinase panel |  | 10 µM |  | remaining activity | 86%
O=C(Cc1ccc(OCc2ccccc2)cc1)NC1(C(=O)O)CCN(C(=O)c2ccc(-c3cccc(Cl)c3)cc2)CC1 | enzyme activity, inhibitor |  | 10 µM |  | activity vs control | 101%
NC(=O)C[C@H]1CCc2sc3ncnc(O[C@H]4CC[C@H](N5CCOCC5)CC4)c3c21 | enzyme activity, inhibitor |  | 10 µM |  | inhibition | 0%

Repeated from above:
SMILES | assay | test system | setting | how to read | endpoint | value
CC(C)=CC1OC(C)(C)C2C=C3C(=O)C(Cl)=CC(O)C3C3C(O)C4OC4C(=O)C132 (stereo not drawn) | cell-free assay, competition with immobilised ligand |  | 10 µM |  | remaining binding | 98%
